Measurements pooled from the literature.
Each line is one published result; not all experiments were run side by side.
Cell line: OVCAR-8

CCCN1CCN(c2ccc3[nH]c(-c4ccc5[nH]c(-c6ccc(OCC)c(OCC)c6)nc5c4)nc3c2)CC1 — growth percent (SRB; 10 µM, 48 h): -11%
Cc1cc(C)n(C(=S)[S][Au][PH](CCCCCC[PH]([Au][S]C(=S)n2nc(C)cc2C)(c2ccccc2)c2ccccc2)(c2ccccc2)c2ccccc2)n1 — log10 TGI (cell growth, NCI-60 screen; ovarian cancer): > -4
O=C1NCCc2[nH]c(-c3ccncc3)cc21 — IC50 (MTS; NCI60 panel): 3.6 µM
O=C(Nc1nnc2[nH]c(=S)[nH]c(-c3ccc(Cl)cc3)c1-2)c1ccccc1 — cell growth (SRB; 10 µM, NCI60 single-dose screen; reference: untreated): 104%
CCCCN1CCN(c2ccc3[nH]c(-c4ccc5[nH]c(-c6ccc(C(F)(F)F)cc6)nc5c4)nc3c2)CC1 — growth percent (SRB; 10 µM, 48 h): -40.5%
O=C(Nc1nnc2n3c(Cc4ccccc4)n[nH]c3nc(-c3ccc(Cl)cc3)c1-2)c1ccccc1 — cell growth (SRB; 10 µM, NCI60 single-dose screen; reference: untreated): 107%
O=C(/C=C/C=C/C=C/C1CCCCC1)NC1=C[C@@](O)(/C=C/C=C/C=C/C(=O)NC2=C(O)CCC2=O)[C@@H]2O[C@@H]2C1=O — GI50 (cell growth, CellTiter-Glo; 78 h): 16.7 µM
Cc1cc(C)n(-c2nc(-c3ccc(Cl)cc3)c3c(NC(=O)c4ccccc4)nnc-3[nH]2)n1 — cell growth (SRB; 10 µM, NCI60 single-dose screen; reference: untreated): 102%
C#C[C@@]1(O)[C@@H](CO)O[C@@H](n2cc(Br)c3c(N)ncnc32)[C@@H]1O — TGI (SRB; NCI-60 screen): 1.12 µM
CCCCN1CCN(c2ccc3[nH]c(-c4ccc5[nH]c(-c6cc(OC)c(OC)c(OC)c6)nc5c4)nc3c2)CC1 — growth percent (SRB; 10 µM, 48 h): 56.2%
Cn1cncc1C1=CN(c2ncnc3[nH]cnc23)CCS1 — GI50 (ovarian cancer): 30.9 µM
COc1ccc(OC)c(-c2nc3ccc(-c4nc5ccc(N6CCN(C)CC6)cc5[nH]4)cc3[nH]2)c1 — growth percent (SRB; 10 µM, 48 h): 102%
O=C(Nc1nnc2n3c(=S)[nH][nH]c3nc(-c3ccc(Cl)cc3)c1-2)c1ccccc1 — cell growth (SRB; 10 µM, NCI60 single-dose screen; reference: untreated): 91.6%
C#C[C@@]1(O)[C@@H](CO)O[C@@H](n2ccc3c(N)ncnc32)[C@@H]1O — TGI (SRB; NCI-60 screen): 4.11 µM

For quick reference, copied from above:
O=C(Nc1nnc2[nH]c(=S)[nH]c(-c3ccc(Cl)cc3)c1-2)c1ccccc1 — cell growth (SRB; 10 µM, NCI60 single-dose screen; reference: untreated): 104%
